{"data": "Measured values from different studies", "note": "Compare with care: the assays were run in different laboratories. “And” joins repeats or separate records; there may be more than shown. ± gives the spread as reported.", "chain of UniProt Q80VM9 (whole entry, looked up)": "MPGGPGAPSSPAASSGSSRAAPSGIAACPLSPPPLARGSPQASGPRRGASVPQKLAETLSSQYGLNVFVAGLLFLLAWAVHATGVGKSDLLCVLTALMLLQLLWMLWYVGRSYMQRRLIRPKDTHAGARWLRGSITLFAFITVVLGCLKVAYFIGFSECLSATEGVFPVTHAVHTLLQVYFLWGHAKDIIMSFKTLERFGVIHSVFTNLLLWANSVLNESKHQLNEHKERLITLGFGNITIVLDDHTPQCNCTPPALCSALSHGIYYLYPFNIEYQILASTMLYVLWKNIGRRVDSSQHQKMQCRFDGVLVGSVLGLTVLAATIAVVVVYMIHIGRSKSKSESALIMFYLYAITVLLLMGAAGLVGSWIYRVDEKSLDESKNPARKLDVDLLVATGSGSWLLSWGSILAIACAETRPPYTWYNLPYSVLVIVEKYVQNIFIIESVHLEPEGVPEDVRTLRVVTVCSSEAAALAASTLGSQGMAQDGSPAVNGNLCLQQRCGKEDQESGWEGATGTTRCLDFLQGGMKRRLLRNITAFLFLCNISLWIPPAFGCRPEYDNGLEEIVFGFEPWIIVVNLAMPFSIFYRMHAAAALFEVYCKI", "chain of UniProt Q8NER1 (whole entry, looked up)": "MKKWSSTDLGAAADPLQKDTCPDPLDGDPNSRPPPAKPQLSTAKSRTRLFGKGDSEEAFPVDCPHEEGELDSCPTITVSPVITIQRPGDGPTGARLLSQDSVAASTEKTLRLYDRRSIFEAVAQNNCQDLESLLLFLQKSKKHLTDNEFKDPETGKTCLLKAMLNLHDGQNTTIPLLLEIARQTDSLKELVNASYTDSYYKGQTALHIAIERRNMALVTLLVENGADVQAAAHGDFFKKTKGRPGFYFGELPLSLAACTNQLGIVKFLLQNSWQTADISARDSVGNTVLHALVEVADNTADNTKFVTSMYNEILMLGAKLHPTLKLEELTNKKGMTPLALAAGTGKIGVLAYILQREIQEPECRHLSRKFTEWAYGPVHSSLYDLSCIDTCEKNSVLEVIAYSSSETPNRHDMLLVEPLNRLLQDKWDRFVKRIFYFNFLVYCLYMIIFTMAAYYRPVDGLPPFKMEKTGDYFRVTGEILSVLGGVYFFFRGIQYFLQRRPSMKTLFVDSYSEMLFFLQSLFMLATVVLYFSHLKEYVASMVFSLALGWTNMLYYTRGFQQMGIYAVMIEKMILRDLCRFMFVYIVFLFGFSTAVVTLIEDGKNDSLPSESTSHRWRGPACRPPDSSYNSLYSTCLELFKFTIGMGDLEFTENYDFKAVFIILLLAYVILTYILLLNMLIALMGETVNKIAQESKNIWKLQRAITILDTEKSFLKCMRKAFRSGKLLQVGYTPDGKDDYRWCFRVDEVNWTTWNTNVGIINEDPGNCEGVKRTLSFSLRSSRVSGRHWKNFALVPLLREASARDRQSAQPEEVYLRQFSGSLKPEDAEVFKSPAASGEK", "chain of UniProt P22736 (whole entry, looked up)": "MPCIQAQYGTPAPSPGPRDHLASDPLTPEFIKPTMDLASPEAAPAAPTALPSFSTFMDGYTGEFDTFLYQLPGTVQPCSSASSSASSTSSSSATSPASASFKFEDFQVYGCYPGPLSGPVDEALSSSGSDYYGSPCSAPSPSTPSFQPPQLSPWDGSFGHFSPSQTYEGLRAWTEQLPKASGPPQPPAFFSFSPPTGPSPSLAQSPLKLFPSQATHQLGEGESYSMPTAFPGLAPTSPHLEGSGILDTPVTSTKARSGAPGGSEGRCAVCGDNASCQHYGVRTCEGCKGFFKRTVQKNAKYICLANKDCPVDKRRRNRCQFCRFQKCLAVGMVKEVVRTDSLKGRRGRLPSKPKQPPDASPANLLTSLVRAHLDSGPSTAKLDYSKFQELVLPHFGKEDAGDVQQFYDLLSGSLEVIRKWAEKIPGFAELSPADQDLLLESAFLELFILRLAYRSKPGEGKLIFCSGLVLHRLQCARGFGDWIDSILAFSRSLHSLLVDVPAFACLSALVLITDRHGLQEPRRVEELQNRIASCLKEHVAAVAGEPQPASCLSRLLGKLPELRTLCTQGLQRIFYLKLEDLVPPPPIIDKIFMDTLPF", "chain of UniProt P11388 (whole entry, looked up)": "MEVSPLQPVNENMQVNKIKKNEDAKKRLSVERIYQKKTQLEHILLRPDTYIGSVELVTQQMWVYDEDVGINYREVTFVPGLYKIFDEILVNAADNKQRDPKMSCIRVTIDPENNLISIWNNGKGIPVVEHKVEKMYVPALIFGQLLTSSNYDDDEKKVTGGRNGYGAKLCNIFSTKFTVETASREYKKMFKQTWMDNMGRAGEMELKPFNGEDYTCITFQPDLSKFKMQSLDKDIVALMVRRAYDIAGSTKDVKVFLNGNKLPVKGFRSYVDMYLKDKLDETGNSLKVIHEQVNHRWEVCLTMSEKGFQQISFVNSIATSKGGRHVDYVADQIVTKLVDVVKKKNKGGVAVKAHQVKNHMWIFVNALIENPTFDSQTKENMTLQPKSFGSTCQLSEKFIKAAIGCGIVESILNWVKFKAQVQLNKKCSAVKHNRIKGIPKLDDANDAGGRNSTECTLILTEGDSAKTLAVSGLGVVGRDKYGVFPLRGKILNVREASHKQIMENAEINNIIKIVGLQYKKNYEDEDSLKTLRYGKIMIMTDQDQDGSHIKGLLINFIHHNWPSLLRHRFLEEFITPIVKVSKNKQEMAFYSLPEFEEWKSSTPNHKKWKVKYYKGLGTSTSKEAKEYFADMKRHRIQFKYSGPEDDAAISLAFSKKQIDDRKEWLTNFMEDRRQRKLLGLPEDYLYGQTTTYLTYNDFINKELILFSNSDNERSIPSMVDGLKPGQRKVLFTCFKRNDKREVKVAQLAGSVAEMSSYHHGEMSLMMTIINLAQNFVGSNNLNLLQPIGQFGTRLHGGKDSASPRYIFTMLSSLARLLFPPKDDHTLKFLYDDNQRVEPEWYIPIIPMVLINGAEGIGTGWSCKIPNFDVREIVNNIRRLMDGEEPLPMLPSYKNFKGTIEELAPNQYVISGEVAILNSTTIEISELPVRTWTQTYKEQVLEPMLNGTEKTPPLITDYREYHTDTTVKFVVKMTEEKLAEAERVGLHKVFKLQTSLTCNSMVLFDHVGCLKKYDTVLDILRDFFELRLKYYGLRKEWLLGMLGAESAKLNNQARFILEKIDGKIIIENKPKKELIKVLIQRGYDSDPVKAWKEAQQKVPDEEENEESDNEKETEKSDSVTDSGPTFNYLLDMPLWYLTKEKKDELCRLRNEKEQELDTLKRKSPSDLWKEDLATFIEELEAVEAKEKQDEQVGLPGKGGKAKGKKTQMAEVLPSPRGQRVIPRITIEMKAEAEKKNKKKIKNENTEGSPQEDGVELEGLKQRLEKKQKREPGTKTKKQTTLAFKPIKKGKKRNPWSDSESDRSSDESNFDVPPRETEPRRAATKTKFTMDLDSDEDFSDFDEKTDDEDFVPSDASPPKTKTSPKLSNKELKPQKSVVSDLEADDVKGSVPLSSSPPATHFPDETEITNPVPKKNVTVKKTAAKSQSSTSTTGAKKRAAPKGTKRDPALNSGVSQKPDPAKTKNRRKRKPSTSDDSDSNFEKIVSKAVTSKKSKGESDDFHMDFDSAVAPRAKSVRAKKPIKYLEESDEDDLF", "chain of UniProt P47898 (whole entry, looked up)": "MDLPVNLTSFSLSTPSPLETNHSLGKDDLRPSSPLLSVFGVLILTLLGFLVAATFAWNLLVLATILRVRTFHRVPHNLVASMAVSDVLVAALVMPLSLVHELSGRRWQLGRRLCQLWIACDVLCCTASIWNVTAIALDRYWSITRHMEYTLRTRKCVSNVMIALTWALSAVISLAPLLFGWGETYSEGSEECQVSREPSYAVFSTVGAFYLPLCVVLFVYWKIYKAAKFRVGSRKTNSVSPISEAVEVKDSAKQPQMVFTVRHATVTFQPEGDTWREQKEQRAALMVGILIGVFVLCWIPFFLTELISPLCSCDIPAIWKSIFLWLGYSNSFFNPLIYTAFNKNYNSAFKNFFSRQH", "chain of UniProt Q96SW2 (whole entry, looked up)": "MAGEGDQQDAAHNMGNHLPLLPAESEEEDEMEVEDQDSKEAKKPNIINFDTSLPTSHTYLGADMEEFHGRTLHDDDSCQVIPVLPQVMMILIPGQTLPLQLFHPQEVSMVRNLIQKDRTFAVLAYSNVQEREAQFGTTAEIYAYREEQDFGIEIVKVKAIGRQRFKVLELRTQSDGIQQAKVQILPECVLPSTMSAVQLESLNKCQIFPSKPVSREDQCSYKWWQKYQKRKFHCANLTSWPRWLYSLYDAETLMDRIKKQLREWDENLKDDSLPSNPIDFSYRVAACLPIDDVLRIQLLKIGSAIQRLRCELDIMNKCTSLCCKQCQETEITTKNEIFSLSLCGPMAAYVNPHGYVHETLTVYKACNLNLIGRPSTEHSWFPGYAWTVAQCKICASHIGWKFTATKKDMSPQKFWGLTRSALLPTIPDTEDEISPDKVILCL", "chain of UniProt Q969H0 (whole entry, looked up)": "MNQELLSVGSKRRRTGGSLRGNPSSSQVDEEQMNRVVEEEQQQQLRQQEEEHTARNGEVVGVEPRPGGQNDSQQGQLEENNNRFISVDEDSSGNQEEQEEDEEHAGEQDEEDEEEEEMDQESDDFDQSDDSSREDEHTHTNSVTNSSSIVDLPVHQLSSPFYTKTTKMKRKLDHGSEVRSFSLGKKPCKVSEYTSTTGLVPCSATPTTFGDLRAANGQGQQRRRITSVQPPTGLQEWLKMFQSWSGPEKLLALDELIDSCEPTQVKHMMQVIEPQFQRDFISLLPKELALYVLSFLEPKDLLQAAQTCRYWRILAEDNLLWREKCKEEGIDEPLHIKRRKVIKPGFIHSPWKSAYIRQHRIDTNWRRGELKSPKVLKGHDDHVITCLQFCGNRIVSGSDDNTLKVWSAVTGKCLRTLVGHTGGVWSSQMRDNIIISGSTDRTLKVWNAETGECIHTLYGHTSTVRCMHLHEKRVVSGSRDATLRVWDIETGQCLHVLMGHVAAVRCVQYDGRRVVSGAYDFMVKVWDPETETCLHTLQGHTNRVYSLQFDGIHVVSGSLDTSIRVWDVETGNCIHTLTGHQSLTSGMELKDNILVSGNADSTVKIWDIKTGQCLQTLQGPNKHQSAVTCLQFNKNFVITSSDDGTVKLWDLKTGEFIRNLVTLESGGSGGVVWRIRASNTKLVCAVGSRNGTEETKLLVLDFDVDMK"}
{"target": "TRPV1 (Homo sapiens, UniProt Q8NER1)", "test": "channel activation, FLIPR calcium", "system": "HEK293T", "conditions": "20 µM", "scale": "higher = more activation", "measurement": "calcium response", "value": "35.3 a.u. and 39.3 a.u. and 45 a.u. and 24.6 a.u.", "Structure (SMILES)": "COc1cc(CNC(=O)CCCC/C=C/C(C)C)ccc1O"}
{"target": "MAPKAPK5 (Homo sapiens, UniProt Q8IW41)", "test": "kinase activity", "conditions": "1 µM, human enzyme, together with: ATP 10 µM", "scale": "relative to: DMSO control", "measurement": "remaining activity", "value": "104%", "Structure (SMILES)": "COc1cc(-c2cncc3c2CN(C)Cc2cc(N4CCNCC4)ccc2-3)cc(OC)c1OC"}
{"target": "FBXW7 (Homo sapiens, UniProt Q969H0)", "test": "binding, affinity selection mass spectrometry", "scale": "relative to: other proteins in batch", "measurement": "fold enrichment", "value": 0.876, "Structure (SMILES)": "O=C(O)[C@@H]1CCCN1c1ncnc2[nH]cnc12 (racemic)"}
{"target": "HTR5A (Homo sapiens, UniProt P47898)", "test": "radioligand binding", "conditions": "concentration not given, together with: [3H]LSD", "measurement": "inhibition", "value": "-29%", "Structure (SMILES)": "Cc1ccnc(OC[C@H]2CN(CC(=O)N3CCc4ccccc43)CCO2)c1"}
{"target": "Otop1 (Mus musculus, UniProt Q80VM9)", "test": "ion current, whole-cell voltage ramp", "conditions": "10 µM, together with: NMDG bath solution", "measurement": "reversal potential", "value": "60.5 mV and 60.6 mV and 45.8 mV and 56.1 mV and 59.9 mV and 61.9 mV", "Structure (SMILES)": "Cc1ccc(C(=O)Nc2ccc3ccccc3c2)o1"}
{"target": "Cereblon/Casein kinase I alpha (CSNK1A1/CRBN, Homo sapiens, UniProt P48729+Q96SW2)", "test": "degrader, live-cell HiBiT kinetic", "system": "HEK293 LgBiT", "conditions": "10 µM", "measurement": "degradation rate constant", "value": "0.97 h⁻¹", "Structure (SMILES)": "Cc1ccccc1C(=O)Nc1ccc2c(c1)CN(C1CCC(=O)NC1=O)C2=O (stereo not drawn)"}
{"target": "Nuclear receptor subfamily 4 group A member 1 (NR4A1, Homo sapiens, UniProt P22736)", "test": "reporter gene, NBRE reporter full-length", "conditions": "50 µM", "scale": "relative to: vehicle", "measurement": "activation", "value": "0.52 fold", "Structure (SMILES)": "CCC(=O)NS(=O)(=O)c1ccc(-c2c(-c3ccccc3)noc2C)cc1"}
{"target": "TOP2A (Homo sapiens, UniProt P11388)", "test": "ATPase activity", "conditions": "125 µM, together with: ATP 1 mM", "measurement": "ATP hydrolysis rate", "value": "2.88 µM/min and 0.498 µM/min", "Structure (SMILES)": "O=c1nc(SCc2cc(F)cc(C(F)(F)F)c2)nc(SCc2ccc3nc(Cl)ccc3c2)[nH]1"}
{"target": "Bromodomain-containing protein 2, BD2 (BRD2, Homo sapiens, UniProt P25440)", "test": "binding, ITC", "conditions": "25 °C, compound in cell, protein in syringe", "measurement": "ΔH", "value": "-8.2 ± 0.1 kcal/mol", "Structure (SMILES)": "CC(=O)N[C@H](C(=O)N1C[C@H](O)C[C@H]1C(=O)NCc1ccc(-c2scnc2C)cc1)C(C)(C)SCCCCCCNC(=O)C[C@@H]1N=C(c2ccc(Cl)cc2)c2c(sc(C)c2C)-n2c(C)nnc21"}
{"target": "PRKX (Homo sapiens, UniProt P51817)", "test": "KINOMEscan", "conditions": "1 µM", "measurement": "remaining binding", "value": "100%", "Structure (SMILES)": "C=CC(=O)N1CCC(C(=O)NCC(=O)N2CCN(c3nc(-c4cnc(N)nc4C(F)F)nc(N4CCOCC4)n3)CC2)CC1"}
{"target": "Endothelial PAS domain-containing protein 1, PAS-B domain (EPAS1, Homo sapiens, UniProt Q99814, N288A)", "test": "binding, ITC, reverse mode", "measurement": "ΔH", "value": "-7.24 ± 0.14 kcal/mol", "Structure (SMILES)": "O=[N+]([O-])c1cc(C(F)(F)F)ccc1NCc1ccco1"}
{"target": "O-methyltransferase (Sorghum bicolor, UniProt A0A1B6PFV1)", "test": "ITC", "conditions": "together with: SAH+", "measurement": "-TΔS", "value": "5.26 kcal/mol", "Structure (SMILES)": "Oc1ccc(/C=C/c2cc(O)cc(O)c2)cc1"}
{"note": "Some of these lines once more:"}
{"target": "Cereblon/Casein kinase I alpha (CSNK1A1/CRBN, Homo sapiens, UniProt P48729+Q96SW2)", "test": "degrader, live-cell HiBiT kinetic", "system": "HEK293 LgBiT", "conditions": "10 µM", "measurement": "degradation rate constant", "value": "0.97 h⁻¹", "Structure (SMILES)": "Cc1ccccc1C(=O)Nc1ccc2c(c1)CN(C1CCC(=O)NC1=O)C2=O (stereo not drawn)"}
{"target": "Nuclear receptor subfamily 4 group A member 1 (NR4A1, Homo sapiens, UniProt P22736)", "test": "reporter gene, NBRE reporter full-length", "conditions": "50 µM", "scale": "relative to: vehicle", "measurement": "activation", "value": "0.52 fold", "Structure (SMILES)": "CCC(=O)NS(=O)(=O)c1ccc(-c2c(-c3ccccc3)noc2C)cc1"}
